Measured values of several laboratories.
Parts stem from different laboratories: compare values within a part only. “And” joins repeats or separate records; there may be more than shown.
UniProt P42336, sequence (whole entry, unmodified, looked up): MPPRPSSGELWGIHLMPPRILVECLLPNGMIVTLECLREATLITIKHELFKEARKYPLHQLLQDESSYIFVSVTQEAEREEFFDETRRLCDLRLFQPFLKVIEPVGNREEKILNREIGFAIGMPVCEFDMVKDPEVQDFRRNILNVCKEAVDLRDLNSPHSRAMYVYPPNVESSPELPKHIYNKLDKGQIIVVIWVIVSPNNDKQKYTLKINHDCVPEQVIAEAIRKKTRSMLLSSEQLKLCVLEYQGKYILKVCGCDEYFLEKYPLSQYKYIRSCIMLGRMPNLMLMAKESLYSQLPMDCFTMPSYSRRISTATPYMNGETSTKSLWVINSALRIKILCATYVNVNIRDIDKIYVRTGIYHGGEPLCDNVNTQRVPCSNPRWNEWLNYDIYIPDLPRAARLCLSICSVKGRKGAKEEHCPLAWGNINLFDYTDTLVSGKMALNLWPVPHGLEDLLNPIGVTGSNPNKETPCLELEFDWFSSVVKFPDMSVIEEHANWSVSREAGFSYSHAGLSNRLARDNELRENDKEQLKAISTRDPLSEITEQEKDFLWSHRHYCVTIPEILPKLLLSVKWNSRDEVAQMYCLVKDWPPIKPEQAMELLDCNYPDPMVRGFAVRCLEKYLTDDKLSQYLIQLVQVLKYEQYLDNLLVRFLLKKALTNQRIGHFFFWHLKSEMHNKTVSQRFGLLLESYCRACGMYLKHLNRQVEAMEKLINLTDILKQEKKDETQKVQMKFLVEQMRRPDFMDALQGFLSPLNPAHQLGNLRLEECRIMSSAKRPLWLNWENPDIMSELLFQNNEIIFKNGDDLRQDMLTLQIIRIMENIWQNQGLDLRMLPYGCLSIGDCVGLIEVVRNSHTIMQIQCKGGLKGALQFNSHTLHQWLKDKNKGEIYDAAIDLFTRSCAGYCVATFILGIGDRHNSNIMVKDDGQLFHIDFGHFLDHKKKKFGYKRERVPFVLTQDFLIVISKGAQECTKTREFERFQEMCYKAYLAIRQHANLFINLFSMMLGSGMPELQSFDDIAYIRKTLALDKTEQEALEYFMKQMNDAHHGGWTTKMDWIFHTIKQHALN
UniProt O43353, sequence (whole entry, looked up): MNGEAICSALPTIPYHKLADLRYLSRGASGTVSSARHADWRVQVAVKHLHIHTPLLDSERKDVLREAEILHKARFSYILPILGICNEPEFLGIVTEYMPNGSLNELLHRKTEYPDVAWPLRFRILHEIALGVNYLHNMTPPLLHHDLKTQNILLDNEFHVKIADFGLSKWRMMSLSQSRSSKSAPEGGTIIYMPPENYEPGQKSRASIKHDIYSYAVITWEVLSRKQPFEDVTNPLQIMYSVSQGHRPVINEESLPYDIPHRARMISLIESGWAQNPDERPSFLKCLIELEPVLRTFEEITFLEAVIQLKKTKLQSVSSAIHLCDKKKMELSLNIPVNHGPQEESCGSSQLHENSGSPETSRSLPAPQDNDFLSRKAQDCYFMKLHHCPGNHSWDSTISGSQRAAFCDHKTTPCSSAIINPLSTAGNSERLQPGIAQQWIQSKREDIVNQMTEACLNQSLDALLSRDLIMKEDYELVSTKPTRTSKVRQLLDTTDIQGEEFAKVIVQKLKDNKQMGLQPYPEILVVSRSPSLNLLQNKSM
UniProt P11362, sequence (whole entry, looked up): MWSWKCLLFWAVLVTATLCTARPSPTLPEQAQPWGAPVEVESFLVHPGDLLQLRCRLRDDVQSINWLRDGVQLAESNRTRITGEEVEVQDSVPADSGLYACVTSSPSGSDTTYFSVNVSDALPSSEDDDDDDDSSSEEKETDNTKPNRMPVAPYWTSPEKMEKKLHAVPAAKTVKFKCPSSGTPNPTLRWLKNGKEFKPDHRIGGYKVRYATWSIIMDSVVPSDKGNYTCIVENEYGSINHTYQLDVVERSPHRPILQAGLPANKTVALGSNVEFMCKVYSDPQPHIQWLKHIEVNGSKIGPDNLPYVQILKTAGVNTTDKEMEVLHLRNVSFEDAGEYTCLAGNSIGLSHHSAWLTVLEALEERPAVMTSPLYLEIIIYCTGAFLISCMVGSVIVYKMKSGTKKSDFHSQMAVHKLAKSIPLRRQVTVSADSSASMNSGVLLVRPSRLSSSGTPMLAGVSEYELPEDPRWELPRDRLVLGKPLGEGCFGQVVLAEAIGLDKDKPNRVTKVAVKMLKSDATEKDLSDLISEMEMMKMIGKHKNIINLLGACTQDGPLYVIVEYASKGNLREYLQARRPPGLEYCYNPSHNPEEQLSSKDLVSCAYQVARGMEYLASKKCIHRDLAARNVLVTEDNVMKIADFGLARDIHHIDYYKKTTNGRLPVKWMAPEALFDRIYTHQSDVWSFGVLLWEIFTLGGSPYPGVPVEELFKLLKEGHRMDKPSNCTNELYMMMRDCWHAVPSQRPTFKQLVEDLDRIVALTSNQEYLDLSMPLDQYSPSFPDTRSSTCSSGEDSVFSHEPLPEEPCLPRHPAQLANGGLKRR
UniProt P42681, sequence (whole entry, looked up): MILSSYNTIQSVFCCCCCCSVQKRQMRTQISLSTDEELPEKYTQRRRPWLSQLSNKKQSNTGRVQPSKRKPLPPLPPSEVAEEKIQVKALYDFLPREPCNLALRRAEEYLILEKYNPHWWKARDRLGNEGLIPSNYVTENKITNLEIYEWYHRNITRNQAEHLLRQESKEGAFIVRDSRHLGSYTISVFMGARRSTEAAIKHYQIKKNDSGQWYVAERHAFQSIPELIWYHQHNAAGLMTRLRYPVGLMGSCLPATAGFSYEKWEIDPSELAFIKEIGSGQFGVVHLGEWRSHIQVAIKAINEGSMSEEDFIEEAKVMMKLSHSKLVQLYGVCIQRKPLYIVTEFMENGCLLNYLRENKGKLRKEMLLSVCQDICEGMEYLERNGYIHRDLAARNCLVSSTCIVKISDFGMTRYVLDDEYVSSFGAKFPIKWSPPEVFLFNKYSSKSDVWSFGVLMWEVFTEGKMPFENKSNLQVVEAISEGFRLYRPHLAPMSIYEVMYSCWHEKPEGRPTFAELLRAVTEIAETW
UniProt Q8N752, sequence (whole entry, looked up): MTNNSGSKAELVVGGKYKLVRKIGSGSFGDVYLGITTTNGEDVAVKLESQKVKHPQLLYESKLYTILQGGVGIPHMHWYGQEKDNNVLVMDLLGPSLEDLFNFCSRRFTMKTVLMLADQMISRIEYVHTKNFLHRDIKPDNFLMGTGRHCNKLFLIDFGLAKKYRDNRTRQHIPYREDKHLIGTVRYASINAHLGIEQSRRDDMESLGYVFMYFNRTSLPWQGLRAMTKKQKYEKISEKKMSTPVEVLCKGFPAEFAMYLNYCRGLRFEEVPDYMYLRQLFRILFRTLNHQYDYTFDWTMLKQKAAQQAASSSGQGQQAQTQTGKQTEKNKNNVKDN
UniProt O15197, sequence (whole entry, looked up): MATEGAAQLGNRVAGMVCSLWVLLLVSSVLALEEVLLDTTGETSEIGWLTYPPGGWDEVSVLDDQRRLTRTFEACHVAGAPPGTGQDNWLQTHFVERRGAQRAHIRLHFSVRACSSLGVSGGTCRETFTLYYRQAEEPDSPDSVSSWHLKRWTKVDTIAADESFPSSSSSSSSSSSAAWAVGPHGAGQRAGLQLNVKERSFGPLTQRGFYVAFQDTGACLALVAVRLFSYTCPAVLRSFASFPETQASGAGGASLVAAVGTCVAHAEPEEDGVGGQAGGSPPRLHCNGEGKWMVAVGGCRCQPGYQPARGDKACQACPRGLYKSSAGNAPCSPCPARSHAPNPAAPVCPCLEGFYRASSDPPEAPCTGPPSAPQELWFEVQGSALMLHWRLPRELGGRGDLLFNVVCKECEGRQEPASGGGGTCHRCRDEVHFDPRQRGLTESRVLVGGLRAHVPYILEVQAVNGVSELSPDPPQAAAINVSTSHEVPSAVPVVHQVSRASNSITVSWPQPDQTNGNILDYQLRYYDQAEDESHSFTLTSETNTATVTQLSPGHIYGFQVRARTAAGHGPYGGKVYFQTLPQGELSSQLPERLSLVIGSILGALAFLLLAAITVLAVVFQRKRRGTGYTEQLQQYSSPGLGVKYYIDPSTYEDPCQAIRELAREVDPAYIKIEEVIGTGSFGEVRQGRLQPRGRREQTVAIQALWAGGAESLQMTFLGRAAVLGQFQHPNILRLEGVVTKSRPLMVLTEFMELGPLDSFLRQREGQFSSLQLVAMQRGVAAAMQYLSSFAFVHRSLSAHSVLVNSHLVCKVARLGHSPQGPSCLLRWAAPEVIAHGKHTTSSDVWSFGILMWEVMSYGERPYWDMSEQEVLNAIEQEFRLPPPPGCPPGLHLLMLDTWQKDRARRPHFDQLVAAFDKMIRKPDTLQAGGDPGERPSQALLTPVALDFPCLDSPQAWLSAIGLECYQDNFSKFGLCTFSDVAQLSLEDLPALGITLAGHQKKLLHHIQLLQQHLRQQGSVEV
UniProt Q00536, sequence (whole entry, looked up): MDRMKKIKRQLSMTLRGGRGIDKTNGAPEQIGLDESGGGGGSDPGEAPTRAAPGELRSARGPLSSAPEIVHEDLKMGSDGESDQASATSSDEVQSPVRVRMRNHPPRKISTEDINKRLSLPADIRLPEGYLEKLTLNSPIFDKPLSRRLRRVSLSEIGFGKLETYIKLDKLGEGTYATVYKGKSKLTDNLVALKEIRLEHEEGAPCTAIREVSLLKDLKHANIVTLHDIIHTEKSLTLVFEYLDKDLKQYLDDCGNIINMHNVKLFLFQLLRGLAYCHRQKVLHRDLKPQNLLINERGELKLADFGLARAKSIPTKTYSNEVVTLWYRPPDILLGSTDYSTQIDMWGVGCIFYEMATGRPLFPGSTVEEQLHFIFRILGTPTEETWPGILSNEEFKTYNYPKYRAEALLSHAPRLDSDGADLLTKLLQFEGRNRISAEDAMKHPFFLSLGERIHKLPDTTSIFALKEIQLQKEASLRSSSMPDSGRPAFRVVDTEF

Set 1
SMILES: CN1CCN(C(=O)c2ccc(NC(=O)Nc3ccc(N(C)c4ccnc(Nc5ccc(CS(C)(=O)=O)cc5)n4)cc3)cc2)CC1
Read-out: binding
Tested at: 1 µM
Quantity: remaining binding
target = Phosphatidylinositol 3-kinase C2 domain-containing subunit gamma (PIK3C2G, Homo sapiens, UniProt O75747); result = 100%
target = Casein kinase I isoform alpha-like (CSNK1A1L, Homo sapiens, UniProt Q8N752); result = 100%
target = Fibroblast growth factor receptor 1 (FGFR1, Homo sapiens, UniProt P11362); test = competition with immobilised ligand; result = 100%
target = Phosphatidylinositol 4,5-bisphosphate 3-kinase catalytic subunit alpha isoform (PIK3CA, Homo sapiens, UniProt P42336, Q546K); result = 100%
target = Receptor-interacting serine/threonine-protein kinase 2 (RIPK2, Homo sapiens, UniProt O43353); test = competition with immobilised ligand; result = 94%
target = Ephrin type-B receptor 6 (EPHB6, Homo sapiens, UniProt O15197); test = competition with immobilised ligand; result = 4.3%
target = Tyrosine-protein kinase TXK (TXK, Homo sapiens, UniProt P42681); test = competition with immobilised ligand; result = 15%
target = Cyclin-dependent kinase 16 (CDK16, Homo sapiens, UniProt Q00536); result = 76%

Set 2
Structure (SMILES): CCOc1ccc(Nc2c3c(nc4ccccc24)CCC3)cc1
Organism: Leishmania donovani
Quantity: inhibition
test = parasite killing; test system = DD8, promastigotes; setting = 6.66 µM, 72 h; result = 88% and 91% and 84%
test = parasite killing; test system = DD8, intracellular amastigotes; setting = 0.2 µM, 24 h; result = 6% and 5% and 3%
test = parasite growth, high-content imaging; test system = MHOM/IN/80/DD8, amastigotes in THP-1 cells; setting = 80 µM; result = 100% and 101% and 102%
test = parasite killing; test system = DD8, intracellular amastigotes; setting = 8 µM, 48 h; result = 99% and 98% and 96%
test = parasite killing; test system = DD8, promastigotes; setting = 0.033 µM, 24 h; result = 6% and 4%

Set 3
SMILES: CC(C)n1cnc(-c2ccc(F)cc2)c1-c1ncc(C(=O)Nc2ccc(N3CCN(C)CC3)cc2)[nH]1
Method: phase 2a trial
Species: idiopathic pulmonary fibrosis patients
Quantity: patients with soft tissue infection
setting = 30 mg once daily, grade 1; result = 0%
setting = 30 mg once daily, grade 2; result = 0%
setting = 60 mg once daily, grade 4; result = 0%
setting = 60 mg once daily, grade 3; result = 0%
setting = 60 mg once daily, grade 1; result = 0%
setting = 30 mg once daily, grade 4; result = 0%
setting = 30 mg once daily, grade 3; result = 0%

Mixed results
SMILES = CNC(=O)c1ccc(-c2cnn3ccc(C(=O)N(C)c4ccc(Cl)c(C(=O)OC)c4)cc23)cc1; test system = beagle dog, plasma; setting = oral, 15 mg/kg/day, multiple doses; quantity = Cmax; result = 20 ng/mL

For quick reference, copied from above (set 1):
target = Ephrin type-B receptor 6 (EPHB6, Homo sapiens, UniProt O15197); test = competition with immobilised ligand; result = 4.3%
target = Tyrosine-protein kinase TXK (TXK, Homo sapiens, UniProt P42681); test = competition with immobilised ligand; result = 15%
target = Cyclin-dependent kinase 16 (CDK16, Homo sapiens, UniProt Q00536); result = 76%
